# Assay results from different studies.
# Protocols differ between the studies behind these lines.
# Organism: Pseudomonas aeruginosa
SMILES,technique,strain,sample,time,temperature,MIC
CC[C@H](C)[C@H](N)C(=O)N[C@@H](CC(C)C)C(=O)NCC(=O)N1CCC[C@H]1C(=O)N[C@H](C(=O)N[C@@H](CC(C)C)C(=O)NCC(=O)N[C@@H](CC(C)C)C(=O)N[C@H](C(=O)N[C@@H](CO)C(=O)N[C@@H](CC(=O)O)C(=O)N[C@H](C(=O)N[C@@H](CC(C)C)C(=O)N[C@@H](CC(=O)O)C(=O)N[C@@H](CC(=O)O)C(=O)N[C@H](C(=O)N[C@@H](CC(C)C)C(=O)NCC(=O)N[C@H](C(=O)N[C@@H](CC(C)C)C(=O)O)[C@@H](C)CC)C(C)C)[C@@H](C)O)C(C)C)C(C)C,,ATCC 27853,,24 h,37 °C,90 µM
CC[C@H](C)CCCCC(=O)N[C@@H](CCN)C(=O)N[C@H](C(=O)N[C@@H](CCN)C(=O)N[C@H]1CCNC(=O)[C@H]([C@@H](C)O)NC(=O)[C@H](CCN)NC(=O)[C@H](CCN)NC(=O)[C@H](CC(C)C)NC(=O)[C@@H](CC(C)C)NC(=O)[C@H](CCN)NC1=O)[C@@H](C)O,broth microdilution,ATCC 27853,,,,1 µg/mL
CC(C)C[C@H](NC(=O)[C@H](C)NC(=O)CNC(=O)[C@@H](NC(=O)[C@@H](NC(=O)[C@H](CCCCN)NC(=O)[C@H](CCCCN)NC(=O)[C@@H](NC(=O)[C@H](CC(C)C)NC(=O)[C@H](CCCCN)NC(=O)[C@H](CC(C)C)NC(=O)[C@H](CC(C)C)NC(=O)[C@@H](N)CCCCN)C(C)C)C(C)C)C(C)C)C(=O)NCC(N)=O,,ATCC 19606,CAMHB,18 h,37 °C,> 22 µM
CC[C@H](C)[C@H](NC(=O)[C@H](C)NC(=O)[C@@H](NC(=O)[C@H](C)NC(=O)CNC(=O)[C@H](CCSC)NC(=O)[C@H](CCC(N)=O)NC(=O)[C@H](CC(C)C)NC(=O)[C@H](CO)NC(=O)[C@@H](N)Cc1ccc(O)cc1)[C@@H](C)O)C(=O)N[C@@H](CCCCN)C(=O)N[C@@H](CCC(N)=O)C(=O)N[C@H](C(=O)N[C@@H](CCCCN)C(=O)N[C@@H](CCCCN)C(=O)N[C@@H](CC(C)C)C(=O)N[C@@H](Cc1ccccc1)C(=O)N[C@@H](CCCCN)C(=O)N[C@@H](CCCCN)C(=O)N[C@@H](CCCCN)C(=O)NCC(=O)NCC(N)=O)C(C)C,broth microdilution,ATCC 9027,,24 h,37 °C,310 µM
CSCC[C@H](NC(=O)CNC(=O)[C@H](Cc1c[nH]cn1)NC(=O)[C@H](CC(C)C)NC(=O)[C@H](CO)NC(=O)[C@@H](NC(=O)[C@@H]1CCCN1C(=O)[C@H](Cc1c[nH]cn1)NC(=O)[C@H](CC(C)C)NC(=O)[C@H](CC(C)C)NC(=O)[C@H](CO)NC(=O)[C@@H](N)[C@@H](C)O)C(C)C)C(=O)N[C@@H](CC(=O)O)C(=O)N[C@@H](CC(=O)O)C(=O)N1CCC[C@H]1C(=O)N[C@@H](CCC(=O)O)C(=O)N[C@@H](CCCNC(=N)N)C(=O)N[C@@H](CCC(=O)O)C(=O)N[C@H](C(=O)N[C@@H](CC(C)C)C(=O)O)C(C)C,broth microdilution,PTCC 1074,,overnight,37 °C,20 µM
CC1(C)S[C@@H]2[C@H](NC(=O)[C@H](N)c3ccc(O)cc3)C(=O)N2[C@H]1C(=O)O,,ATCC 29853,,,,> 500 µg/mL
CC[C@H](C)[C@H](NC(=O)[C@H](CC(=O)O)NC(=O)[C@H](Cc1ccccc1)NC(=O)[C@H](CC(C)C)NC(=O)CN)C(=O)N[C@H](C(=O)N[C@@H](CCCCN)C(=O)N[C@@H](CCCCN)C(=O)N[C@H](C(=O)N[C@H](C(=O)NCC(=O)N[C@@H](C)C(=O)N[C@@H](CC(C)C)C(=O)N[C@@H](CCCCN)C(N)=O)C(C)C)C(C)C)C(C)C,,ATCC 19606,CAMHB,18 h,37 °C,> 22 µM
CSCC[C@H](NC(=O)[C@H](CCCCN)NC(=O)[C@H](CCCCN)NC(=O)[C@@H](NC(=O)[C@H](CCCCN)NC(=O)[C@H](CC(=O)O)NC(=O)[C@H](Cc1c[nH]c2ccccc12)NC(=O)[C@H](CC(C)C)NC(=O)[C@H](CCC(=O)O)NC(=O)[C@H](CCCCN)NC(=O)[C@@H](NC(=O)[C@@H](N)Cc1ccccc1)C(C)C)C(C)C)C(=O)NCC(=O)N[C@@H](CO)C(=O)N[C@@H](C)C(=O)N[C@@H](C)C(=O)N[C@@H](Cc1c[nH]c2ccccc12)C(=O)N[C@@H](CO)C(=O)N[C@@H](C)C(=O)N[C@@H](C)C(=O)N[C@@H](CCCCN)C(=O)NCC(=O)N[C@@H](C)C(=O)N[C@@H](Cc1ccccc1)C(=O)N[C@@H](C)C(=O)O,broth microdilution,ATCC 27853,,20 h,37 °C,> 40 µM
C[C@H](N)C(=O)N[C@@H](CS)C(=O)N1CCC[C@H]1C(=O)N[C@@H](Cc1c[nH]cn1)C(=O)N[C@@H](CCCNC(=N)N)C(=O)N[C@@H](CS)C(=O)O,broth microdilution,MTCC 1688,,,37 °C,50 µg/mL
